Results collected from several papers.
Parts stem from different laboratories: compare values within a part only. Positions count from the first letter of the parent shown.

Block 1
Target: CCNE1, cyclin fold, Cln2 fusion (human)
Technique: yeast growth competition, sequencing
Sample: yeast
Notes: weak parent motif
Baseline: not given
Direction: higher = stronger binding
Endpoint: normalised enrichment score
Starting sequence: CABLES2 docking peptide (human); ICAKRSLCAAFSV
ICAKRSLCAAFSA [V13A]: 0.457
ICAKRSLCAAASV [F11A]: -0.0562
ICAARSLCAAFSV [K4A]: 0.226
ICAKASLCAAFSV [R5A]: 0.327
ICAKRSACAAFSV [L7A]: -0.166

Block 2
Target: Sal-like protein 4, full length isoform A (SALL4, Homo sapiens, UniProt Q9UJQ4, residues 1-1053)
UniProt Q9UJQ4, sequence (whole entry, looked up): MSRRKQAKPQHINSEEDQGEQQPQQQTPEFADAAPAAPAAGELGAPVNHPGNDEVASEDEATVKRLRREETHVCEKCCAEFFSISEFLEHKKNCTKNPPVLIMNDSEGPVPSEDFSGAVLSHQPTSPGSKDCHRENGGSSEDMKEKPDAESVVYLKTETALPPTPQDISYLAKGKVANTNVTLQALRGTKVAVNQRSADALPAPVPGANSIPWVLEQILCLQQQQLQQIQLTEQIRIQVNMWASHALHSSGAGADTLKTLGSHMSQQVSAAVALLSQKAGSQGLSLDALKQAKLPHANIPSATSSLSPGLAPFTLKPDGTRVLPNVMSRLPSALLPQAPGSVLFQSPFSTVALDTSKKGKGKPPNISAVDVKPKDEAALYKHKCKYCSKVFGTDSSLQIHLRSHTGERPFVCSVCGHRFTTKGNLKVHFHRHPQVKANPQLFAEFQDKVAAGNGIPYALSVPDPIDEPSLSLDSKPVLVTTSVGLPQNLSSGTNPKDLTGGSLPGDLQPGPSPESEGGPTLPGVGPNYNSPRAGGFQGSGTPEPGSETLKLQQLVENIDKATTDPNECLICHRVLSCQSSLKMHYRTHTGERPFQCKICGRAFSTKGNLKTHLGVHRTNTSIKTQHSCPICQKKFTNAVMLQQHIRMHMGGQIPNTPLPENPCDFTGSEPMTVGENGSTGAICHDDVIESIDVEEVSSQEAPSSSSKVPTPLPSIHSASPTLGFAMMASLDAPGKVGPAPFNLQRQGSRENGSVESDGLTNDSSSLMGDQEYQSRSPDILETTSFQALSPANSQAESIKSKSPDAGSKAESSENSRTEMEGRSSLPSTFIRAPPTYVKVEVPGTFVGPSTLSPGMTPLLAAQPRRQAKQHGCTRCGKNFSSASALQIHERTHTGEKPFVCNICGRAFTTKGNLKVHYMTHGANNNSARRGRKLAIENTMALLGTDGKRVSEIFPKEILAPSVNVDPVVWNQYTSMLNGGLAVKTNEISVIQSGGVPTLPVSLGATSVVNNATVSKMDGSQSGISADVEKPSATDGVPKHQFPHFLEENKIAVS
Technique: universal PBM
Form: double-stranded DNA, one strand shown
Sample: in vitro
Tested at: 600 nM
Notes: 8-mer, flanks averaged, mean of replicates
Direction: higher = stronger binding
Endpoint: E-score
ATCGCTAA: 0.122
CCGGGGAA: -0.304
CCGATCTC: -0.27
CAGGACCC: -0.393
CGACCATA: 0.206
CATTCGGG: -0.214
GCCAGGGC: -0.403
AGGAAACG: 0.069
AATCGGGT: 0.0327
TGGGTTAA: 0.00332
AAGCCAGC: -0.227
AAAGCAGA: 0.0558
TTGATCAA: 0.16
CCGTATCC: -0.197
CCTGGTGA: -0.209
ACGAATCG: 0.0295
ATTCCTAC: 0.11
GACATTGC: 0.0174
AAGATGTC: 0.00715
ACTTCTCG: 0.0843
AGGTTTAT: 0.308
GGTCGAAC: -0.208
CTCATCCC: -0.211
CTCTACCA: -0.0283
AAGAGAAG: 0.0852

Block 3
Target: RNA binding protein fox-1 homolog 2, RRM domain, GST-SBP tag (RBFOX2, Homo sapiens, UniProt O43251-10, residues 100-194)
Technique: RNA Bind-n-Seq
Form: RNA
Sample: in vitro
Tested at: 365 nM
Notes: natural RNA segment, single round, ends assumed
Baseline: no-protein control
Direction: higher = stronger binding
Endpoint: RBNS enrichment (R)
All sequences stand within: GGGAGUUCUACAGUCCGACGAUC … UGGAAUUCUCGGGUGCCAA
Construct (chain): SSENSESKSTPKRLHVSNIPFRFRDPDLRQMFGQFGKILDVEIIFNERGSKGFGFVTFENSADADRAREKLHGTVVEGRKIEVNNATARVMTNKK
AAACAAGGCUAUCUUUGGUCAUAUUCUCUGCUCUGGAAUUUCUGGGCUAGUCUUUCCUGAAUUCUAAUUUUGUUGCUCUGGAAGUGUUAACUGUGAUCCAGUACCUGUAA: 0.451
AGAUUCUGAUGCCAGACUGUUAAAACAGGCGCUGGUUCUGAAGCACCGAUGGAAACAGAUUGAUGCAGAUGGAAGGAGGAAGGGAGACUGGGCCCACUGAUUUCCAGCCC: 0.364
UUAAAAUCGCUUGUAAAUGAGGGCAUACAAGCAUUUGCAACAAAUAUUCAAAUAGAGGCUCACAGCGGCAUAAGCUGGACUUUGUCGCCACUAGAUGACAAGAUGUUAUA: 0.675
CUCGCCACAGUUAUCAGCUGCCAUUGCUCCCUGUCUGUUUCCCCACUCUCUUAUUUGUGCAUUCGGUUUGGUUUCUGUAGUUUUAAUUUUUAAUAAAGUUGAAUAAAAUA: 1.11
CCAAGACAUGGUGGAUAAAAAUGUGGCAAAGACGACAAGAAACUUCAGGUGGUAGCCCUGGUUGUGCUGGGCGGCUAGUGAUGAUGCUGUGCUCUGCCAUCCAUCCAGAC: 0.49
CUGGCUCCCGCCCCACCUGCCCCUGGCGGCUUAUCCAAUGUCCCCACGGAGUCCGGUGUGGGGGGUUUGGUUCUAACUGUCCUGGUGAUGCCUCUCUGAGUGGAAAUCUU: 0.691
UUGCUUUGUUUAUAAAUAGUUUAUGGGAAAUUUGCACUUAGUAUGUUUUGAAUAAUGACCACGCAUGGACACAGUUUCAUUAAUUUAAAUUGCACCACACAAGUAGCAGU: 33.4
AGGGGAGAAAGAUAACUGCUAAAAUUCCCCUGUACCCCAUCCUUUCUUGUCCUUUCCCCUUCAGAUGGAGACUUCAUUAUGUUAAUGAACAAGAUAUGAAGAAAAUGGCA: 0.456
AAGUUGGAAGGAUCUGCUGAGGCCCAGUGCAUAUGCAAUGUAUAGUGUCUAUUAUCACAUUAAUCUCAAAGAGAUUCGAAUGACGGUAAGUGUUCUCAUGAAGCAGGAGG: 0.351
GCAGAAUCCGAUGUGACCCACCAUUAGGGAGUCUGCAUCUUGGAAGAGUUGGAAAUAACCCUUUAACAUCAACAUGCUUCAAAGACUUUUUGCCUUUGGCCUAGUAAGAU: 0.404
CGGGUUUCCUGGGUCCCCUCUCCAGCAAGCCUCCACCAGCAAGCUCGGCCCAGAGCUUCCCUUCCGGCUGGCUCUGAACCGUGCGUGGUGCCUACAGCCUGCAGUCUGGA: 0.196
AAUAUCAUAUGGGAAAUGUCAUAGUUAAAAACGUACAGCCAGGCCCGUGUGCUGUUAAUAGUGUGAAAUUGUCAUGUUAAAAAAAAAAACAGGAACCAAAUGUGACCUUG: 0.418

Block 4
Target: Histone acetyltransferase KAT6A, both winged helices, GST fusion (KAT6A, Homo sapiens, UniProt Q92794, residues 1-181)
Technique: protein binding microarray
Form: double-stranded DNA, one strand shown
Sample: in vitro
Tested at: not given
Notes: 8-mer, flanks averaged, mean of 2 arrays, mostly near background
Baseline: not given
Direction: higher = stronger binding
Endpoint: E-score
Construct (chain): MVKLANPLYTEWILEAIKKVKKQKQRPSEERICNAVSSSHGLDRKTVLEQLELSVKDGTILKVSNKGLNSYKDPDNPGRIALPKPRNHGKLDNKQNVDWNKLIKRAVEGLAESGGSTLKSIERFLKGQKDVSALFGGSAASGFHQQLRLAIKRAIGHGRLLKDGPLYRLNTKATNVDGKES
CCAGCCAG: -0.255
GCTTCCAA: -0.00436
AGGCCCGA: 0.026
CAAACTAC: -0.182
AAGCTGCG: 0.00862
CGCTGCGA: 0.159
AGTCCTTC: -0.096
ACTAAGAA: 0.0477
GTGAAGCA: 0.0131
CTCAGTAA: 0.0812
GCTAACAC: 0.00251
AAGCTCAA: -0.206
AAACCGCA: -0.0241
GAGCCCAC: -0.0933
ATTGGAAG: -0.174
CCAGCTTC: -0.185

Block 5
Target: Ras GTPase-activating protein-binding protein 1, full length (G3BP1, Homo sapiens, UniProt Q13283)
UniProt Q13283, sequence (whole entry, looked up): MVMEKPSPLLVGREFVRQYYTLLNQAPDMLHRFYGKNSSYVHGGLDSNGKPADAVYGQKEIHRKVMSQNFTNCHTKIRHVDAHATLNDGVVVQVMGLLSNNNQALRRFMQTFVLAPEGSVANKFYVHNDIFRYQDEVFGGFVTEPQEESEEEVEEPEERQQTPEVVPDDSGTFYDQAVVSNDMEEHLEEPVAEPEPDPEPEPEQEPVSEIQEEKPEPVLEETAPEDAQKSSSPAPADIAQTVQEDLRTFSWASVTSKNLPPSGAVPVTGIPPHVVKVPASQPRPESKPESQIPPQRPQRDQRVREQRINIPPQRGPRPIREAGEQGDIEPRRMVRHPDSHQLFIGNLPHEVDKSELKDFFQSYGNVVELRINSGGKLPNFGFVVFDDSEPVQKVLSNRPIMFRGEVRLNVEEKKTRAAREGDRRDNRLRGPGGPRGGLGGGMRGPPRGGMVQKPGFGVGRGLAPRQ
Technique: RNA Bind-n-Seq
Form: RNA
Sample: in vitro
Tested at: 200 nM
Notes: whole 134-nt RNA, ends assumed
Added: 150 mM LiCl
Baseline: input library
Direction: higher = stronger binding
Endpoint: log2 enrichment
All molecules: 7-deaza-guanosine replaces G
All sequences stand within: GGGAGUUCUACAGUCCGACGAUC … UGGAAUUCUCGGGUGUCAAGG
AGUCCUGUGCUACACAUCGUAUGUACCGAAUCAAAUUUUUAAAUUUAAACCCCCAAAAAAGUAUUAUGUUACGCCGUUCGGAUCUGCACU: 0.464
GUCCUGUGCUACACAUCGUAUGUACCGAAUCGGGCCCCGGGGCCCCGGGGCCCCGGGGAAAGUAUUAUGUUACGCCGUUCGGAUCUGCAC: -0.0682
GCAGGAAGUAAAAACAAAUGGAAAUGCUUCGGAUAGUGGCAGGGGUGGGCGUUGCUAAGGAAAGGGUGGGAUGGGAGUGGGUAAAGAGUU: 0.206
UCCUCAAGUCCUGUGCUACACAUCGUAUGUACCGAAUCGGCGGGCGGGCGGAAAGUAUUAUGUUACGCCGUUCGGAUCUGCACUUCCAGC: 0.924
ACCAUGCAGGUGGGCAUCUUUGGGAAGUGGGGCAAGGGGUGGAUAGGGAGGGGGGUAACACUUUGGGAACAGGUGGUCCCAGGUCGUUUC: 0.347
CACAGACAACACGCACCCACACAGACACAGACGGAAGGGGUUGGGAUGGGGACAGGGUGCACAGCAGGGCGGGGUAGGACCCCAGCCCCU: 0.0213
UGGCUUCCUUCUUUCUAUUCCCCGCCUGCCUUCCAUGGUAGAGGCCAGUGACUUUGAGAUUAAUGGACUGGACUUCAUGGUAAGACCCUC: 0.493
GUCCUGUGCUACACAUCGUAUGUACCGAAUCGGGAAAAAGGGAAAAAGGGGAAAAAGGGAAAGUAUUAUGUUACGCCGUUCGGAUCUGCA: -0.0908
ACCAUGCAGGUGGGCAUCUUUGGGAAGUGGGGCAAGGGGGGGAUAGGGAGGGGGGUAACACUUUGGGAACAGGUGGUCCCAGGUUGUUUC: 0.145
UGGCCCUGGAGGCAUGCGGGGAGGAAGAGGUGGCCUCAUGGAUCGUGGUGGUCCCGGUGGAAUGUUCAGAGGUGGCCGUGGUGGAGACAG: 0.126
UAACUUUAGAGGAGGAUCUGAUGGAUAUGGCAGUGGACGUGGAUUUGGGGAUGGCUAUAAUGGGUAUGGAGGAGGACUUGGAGGUGGCAA: 0.143

Block 6
Target: PABPC1L2, full length, GST fusion (mouse, UniProt A0ABA7IW68)
Technique: RNAcompete
Form: RNA
Sample: in vitro
Tested at: 20 nM
Notes: 7-mer, probes averaged, single round
Baseline: mean of 7-mers
Direction: higher = stronger binding
Endpoint: 7-mer Z-score
GACUAUG: -0.104
CCUGCCU: -0.418
GAUAGCU: -0.311
GCACCUC: -0.331
GUUCCGG: -0.32
UGCUGAU: -0.161
GAUGCUU: -0.298
UAAAGGA: 0.43
AACCUAC: -0.012
UUUCUGU: -0.496
GAAAAUC: 2.04
GAGCGGC: 0.0243
UAACAAU: 0.0515
UCUAAAC: 0.407
UAUAGGA: 0.0678
GAGUGAU: -0.121
GUAGCAG: -0.193
UCCAAAC: 0.207
CGUAGGU: -0.179
ACCACGU: -0.0881

A few entries again (block 4):
CGCTGCGA: 0.159
AGTCCTTC: -0.096
ACTAAGAA: 0.0477
GTGAAGCA: 0.0131
CTCAGTAA: 0.0812
GCTAACAC: 0.00251
AAGCTCAA: -0.206
AAACCGCA: -0.0241
GAGCCCAC: -0.0933
ATTGGAAG: -0.174
